Measurements of several laboratories.
Numbered parts are unrelated; each lists some results of a single study. Substitutions count along the parent as printed.
Chain of UniProt Q13557 (whole entry, looked up): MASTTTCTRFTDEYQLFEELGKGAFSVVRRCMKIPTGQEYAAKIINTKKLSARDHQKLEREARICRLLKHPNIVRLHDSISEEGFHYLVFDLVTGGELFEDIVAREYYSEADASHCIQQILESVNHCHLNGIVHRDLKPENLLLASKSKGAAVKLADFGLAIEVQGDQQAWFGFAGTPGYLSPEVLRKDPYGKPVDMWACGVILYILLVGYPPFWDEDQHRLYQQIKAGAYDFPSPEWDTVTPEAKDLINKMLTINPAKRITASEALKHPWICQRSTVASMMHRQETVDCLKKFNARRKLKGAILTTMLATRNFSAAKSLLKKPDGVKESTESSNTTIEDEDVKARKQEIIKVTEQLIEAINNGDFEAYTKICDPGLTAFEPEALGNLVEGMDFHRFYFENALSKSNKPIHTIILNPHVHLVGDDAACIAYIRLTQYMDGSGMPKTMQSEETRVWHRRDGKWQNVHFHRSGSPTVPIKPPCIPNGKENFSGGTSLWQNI

Set 1
Target: Eukaryotic initiation factor 4A-I (EIF4A1, Homo sapiens, UniProt P60842, residues 1-406, full length assumed)
Chain of UniProt P60842 (whole entry, looked up): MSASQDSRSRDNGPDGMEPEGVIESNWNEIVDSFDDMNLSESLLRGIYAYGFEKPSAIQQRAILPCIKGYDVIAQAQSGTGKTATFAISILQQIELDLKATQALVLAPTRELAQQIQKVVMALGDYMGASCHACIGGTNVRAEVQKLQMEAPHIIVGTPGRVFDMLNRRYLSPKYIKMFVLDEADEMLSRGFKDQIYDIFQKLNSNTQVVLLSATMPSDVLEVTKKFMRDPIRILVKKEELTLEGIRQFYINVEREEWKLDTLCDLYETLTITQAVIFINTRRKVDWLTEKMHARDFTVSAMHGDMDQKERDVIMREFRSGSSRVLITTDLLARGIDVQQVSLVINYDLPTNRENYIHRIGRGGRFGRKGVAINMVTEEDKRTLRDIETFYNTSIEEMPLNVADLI
Method: RNA Bind-n-Seq
Form: RNA
Sample: in vitro
Tested at: 90 pmol
Notes: 4-mer, random 30-nt RNA, single round
Together with: 3 µM DMDA-PatA, 2 mM ADP, 2 mM phosphate
Reference: input library
Direction: higher = stronger binding
With `CAGA` the 4-mer enrichment was 0.86 fold.
For `UGCG`, the 4-mer enrichment was 1.66 fold.
For `UUGG`, the 4-mer enrichment was 1.17 fold.
`CUUG` has a 4-mer enrichment of 0.658 fold.
The 4-mer enrichment of `UAGA` is reported as 0.996 fold.
With `CGCU` the 4-mer enrichment was 0.685 fold.
For `AUCU`, the 4-mer enrichment was 0.653 fold.
The 4-mer enrichment of `GCUU` is reported as 0.624 fold.

Set 2
Target: CCNB2, cyclin fold, Cln2 fusion (human)
Method: yeast growth competition, sequencing
Sample: yeast
Notes: strong parent motif
Reference: not given
Direction: higher = stronger binding
Parent: viral docking peptide; TSVRRALFTGGSD
`R5V`: “normalised enrichment score” 0.117.
For `R5E`, “normalised enrichment score” read -0.192.
`S12N`: “normalised enrichment score” 1.09.
Under “normalised enrichment score”, `L7W` is recorded as 0.203.
`V3Y`: “normalised enrichment score” 0.562.
For `A6R`, “normalised enrichment score” read 1.09.
Under “normalised enrichment score”, `T9K` is recorded as 1.1.
Under “normalised enrichment score”, `A6K` is recorded as 0.782.
Under “normalised enrichment score”, `T9R` is recorded as 0.806.
`D13A` — result for “normalised enrichment score”: 0.784.
Under “normalised enrichment score”, `F8G` is recorded as -0.108.
For `T9A`, “normalised enrichment score” read 0.498.
`G10W` — result for “normalised enrichment score”: 0.632.
Under “normalised enrichment score”, `S12R` is recorded as 0.969.
Under “normalised enrichment score”, `F8E` is recorded as -0.0698.
For `T9W`, “normalised enrichment score” read 0.194.
`S2M` — result for “normalised enrichment score”: 0.614.
For `G11A`, “normalised enrichment score” read 0.599.
`R4L` — result for “normalised enrichment score”: 0.168.
For `A6D`, “normalised enrichment score” read 0.179.
`T9V`: “normalised enrichment score” 0.724.
Under “normalised enrichment score”, `R4K` is recorded as 0.47.
For `T9G`, “normalised enrichment score” read 0.707.
Under “normalised enrichment score”, `L7P` is recorded as 0.00356.
`A6V` — result for “normalised enrichment score”: 0.354.

Set 3
Target: Fragile X messenger ribonucleoprotein 1, C-terminal low-complexity region (Fmr1, Mus musculus, UniProt P35922)
Method: RNA Bind-n-Seq
Form: RNA
Sample: in vitro
Tested at: 200 nM
Notes: whole 134-nt RNA, ends assumed
Together with: 150 mM KCl
Reference: input library
Direction: higher = stronger binding
Constant ends, left off below: GGGAGUUCUACAGUCCGACGAUC … UGGAAUUCUCGGGUGUCAAGG
`ACCAUGCAGGUGGGCAUCUUUGGGAAGUGGGGCAAGGGGGGGAUAGGGAGGGGGGGAACACUUUGGGAACAGGUGGUCCCAGGUCGUUUC` has a log2 enrichment of 1.06.
`UCCUCAAGUCCUGUGCUACACAUCGUAUGUACCGAAUCGGCGGGCGGGGCGGAAAGUAUUAUGUUACGCCGUUCGGAUCUGCACUUCCAG` has a log2 enrichment of 0.339.
`UCCUGUGCUACACAUCGUAUGUACCGAAUCGGGGAAAAAAGGAAAAAAGGGAAAAAAGGGAAAGUAUUAUGUUACGCCGUUCGGAUCUGC` has a log2 enrichment of -0.142.
The log2 enrichment of `ACCAUGCAGGUGGGCAUCUUAGGGAAGUGGGGCAAGGGGGGGAUAGGGAGGGGGGUAACACUUUGGGAACAGGUGGUCCCAGGUCGUUUC` is reported as 1.09.
`GCAGGAAGUAAAAACAAAUGGAAAUGCUUCGGAUAGUGGCCGGGGUGGGGGUUGCUAAGGAAAGGGUGGGAUGGGAGUGGGUAAAGAGUU` has a log2 enrichment of 0.175.
For `UCAAUGCCGGCUAUGCCCUGGCCCCAGCCACCAGUGCCAACGACAGCGAGCAGCAGAGCCUGUCCAGCGAUGCAGACACCCUGUCCCUCA`, the log2 enrichment was 0.291.
For `ACCAUGCAGGUGGGCAUCUUUGGGAAGUGGGGCAAGGGGGGGAUAGGGAGGGGGGUAACACUUUGGGAACAGGUGGUAAAAGGUCGUUUC`, the log2 enrichment was 0.433.
`AAGUCCUGUGCUACACAUCGUAUGUACCGAAUCGGGUGGGAAAAAAAGGGAAAGGGAAAGUAUUAUGUUACGCCGUUCGGAUCUGCACUU` gave a log2 enrichment of 0.575.

Set 4
Target: HLA class I histocompatibility antigen, A alpha chain, allele A*80:01 (Homo sapiens, UniProt P04439)
Effect on: peptide-MHC binding
Form: peptide
Tested at: concentration not given
Under binding, `KRLQILGYL` is recorded as “inactive”.
Under binding, `AFMATNKAY` is recorded as “inactive”.
`KQMEDGHTL` — result for binding: “inactive”.
Under binding, `KQWIVAGAI` is recorded as “inactive”.

Set 5
Target: PABPC1L2, full length, GST fusion (mouse, UniProt A0ABA7IW68)
Method: RNAcompete
Form: RNA
Sample: in vitro
Tested at: 20 nM
Notes: 7-mer, probes averaged, single round
Reference: mean of 7-mers
Direction: higher = stronger binding
Construct (chain): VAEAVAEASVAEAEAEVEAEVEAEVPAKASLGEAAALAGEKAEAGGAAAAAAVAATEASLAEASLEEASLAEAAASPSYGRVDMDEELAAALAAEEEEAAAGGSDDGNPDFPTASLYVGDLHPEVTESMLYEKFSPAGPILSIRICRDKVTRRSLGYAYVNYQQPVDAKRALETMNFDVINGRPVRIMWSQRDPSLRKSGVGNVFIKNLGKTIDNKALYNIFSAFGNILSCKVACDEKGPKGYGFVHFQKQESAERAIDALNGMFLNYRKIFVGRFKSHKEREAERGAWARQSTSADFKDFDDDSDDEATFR
With `AGUUUGG` the 7-mer Z-score was -0.309.
`UGCCAGC` gave a 7-mer Z-score of -0.2.
For `CGGUCCC`, the 7-mer Z-score was -0.318.
For `GACUUUC`, the 7-mer Z-score was -0.296.
For `UUGACAG`, the 7-mer Z-score was -0.217.
`GCAUGGU` has a 7-mer Z-score of -0.151.
With `UACCUCA` the 7-mer Z-score was -0.137.
`CAUUCCC` gave a 7-mer Z-score of -0.402.

Single results of other studies
CCn1cnc2c(Nc3cccc(Cl)c3)nc(N[C@H]3CCCC[C@H]3N)nc21 gave a remaining activity of 89% (Calcium/calmodulin-dependent protein kinase type II subunit delta (CAMK2D, Homo sapiens, UniProt Q13557); enzyme activity, inhibitor; 0.5 µM; reference: control).

Some of these lines once more (set 2):
`G10W` — result for “normalised enrichment score”: 0.632.
Under “normalised enrichment score”, `S12R` is recorded as 0.969.
Under “normalised enrichment score”, `F8E` is recorded as -0.0698.
For `T9W`, “normalised enrichment score” read 0.194.
`S2M` — result for “normalised enrichment score”: 0.614.
For `G11A`, “normalised enrichment score” read 0.599.
`R4L` — result for “normalised enrichment score”: 0.168.
